# Results gathered from unrelated publications.
# Parts stem from different laboratories: compare values within a part only.
# Chain of UniProt P42336 (whole entry, unmodified, looked up): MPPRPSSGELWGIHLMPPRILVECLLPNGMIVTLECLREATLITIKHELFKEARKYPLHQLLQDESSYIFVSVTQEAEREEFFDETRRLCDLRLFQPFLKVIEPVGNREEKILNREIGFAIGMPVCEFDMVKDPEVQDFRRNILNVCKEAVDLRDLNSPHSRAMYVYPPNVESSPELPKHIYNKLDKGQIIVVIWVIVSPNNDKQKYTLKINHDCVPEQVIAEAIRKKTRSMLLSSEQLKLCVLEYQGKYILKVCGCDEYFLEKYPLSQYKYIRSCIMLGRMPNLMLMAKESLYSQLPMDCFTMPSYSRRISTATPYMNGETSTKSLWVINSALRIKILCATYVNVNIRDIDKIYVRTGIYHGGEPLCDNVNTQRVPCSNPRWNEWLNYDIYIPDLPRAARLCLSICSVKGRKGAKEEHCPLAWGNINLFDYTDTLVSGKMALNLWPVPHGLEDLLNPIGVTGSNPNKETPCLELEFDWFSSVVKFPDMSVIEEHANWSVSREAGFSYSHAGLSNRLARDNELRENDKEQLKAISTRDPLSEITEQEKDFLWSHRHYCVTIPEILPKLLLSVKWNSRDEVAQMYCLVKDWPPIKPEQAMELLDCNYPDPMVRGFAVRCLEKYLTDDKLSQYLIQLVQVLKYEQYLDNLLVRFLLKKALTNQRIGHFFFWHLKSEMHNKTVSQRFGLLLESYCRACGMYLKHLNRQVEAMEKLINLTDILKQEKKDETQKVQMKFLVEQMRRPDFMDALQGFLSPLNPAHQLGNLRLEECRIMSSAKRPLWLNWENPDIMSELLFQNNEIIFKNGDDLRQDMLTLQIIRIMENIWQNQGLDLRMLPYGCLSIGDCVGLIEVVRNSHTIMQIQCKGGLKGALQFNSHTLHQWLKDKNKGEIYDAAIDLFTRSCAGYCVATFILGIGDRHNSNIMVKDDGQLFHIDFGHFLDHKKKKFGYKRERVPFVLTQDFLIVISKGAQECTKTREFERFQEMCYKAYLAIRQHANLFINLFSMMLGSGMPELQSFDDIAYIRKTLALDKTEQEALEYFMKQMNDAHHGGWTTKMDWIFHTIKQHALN
# Chain of UniProt P07333 (whole entry, looked up): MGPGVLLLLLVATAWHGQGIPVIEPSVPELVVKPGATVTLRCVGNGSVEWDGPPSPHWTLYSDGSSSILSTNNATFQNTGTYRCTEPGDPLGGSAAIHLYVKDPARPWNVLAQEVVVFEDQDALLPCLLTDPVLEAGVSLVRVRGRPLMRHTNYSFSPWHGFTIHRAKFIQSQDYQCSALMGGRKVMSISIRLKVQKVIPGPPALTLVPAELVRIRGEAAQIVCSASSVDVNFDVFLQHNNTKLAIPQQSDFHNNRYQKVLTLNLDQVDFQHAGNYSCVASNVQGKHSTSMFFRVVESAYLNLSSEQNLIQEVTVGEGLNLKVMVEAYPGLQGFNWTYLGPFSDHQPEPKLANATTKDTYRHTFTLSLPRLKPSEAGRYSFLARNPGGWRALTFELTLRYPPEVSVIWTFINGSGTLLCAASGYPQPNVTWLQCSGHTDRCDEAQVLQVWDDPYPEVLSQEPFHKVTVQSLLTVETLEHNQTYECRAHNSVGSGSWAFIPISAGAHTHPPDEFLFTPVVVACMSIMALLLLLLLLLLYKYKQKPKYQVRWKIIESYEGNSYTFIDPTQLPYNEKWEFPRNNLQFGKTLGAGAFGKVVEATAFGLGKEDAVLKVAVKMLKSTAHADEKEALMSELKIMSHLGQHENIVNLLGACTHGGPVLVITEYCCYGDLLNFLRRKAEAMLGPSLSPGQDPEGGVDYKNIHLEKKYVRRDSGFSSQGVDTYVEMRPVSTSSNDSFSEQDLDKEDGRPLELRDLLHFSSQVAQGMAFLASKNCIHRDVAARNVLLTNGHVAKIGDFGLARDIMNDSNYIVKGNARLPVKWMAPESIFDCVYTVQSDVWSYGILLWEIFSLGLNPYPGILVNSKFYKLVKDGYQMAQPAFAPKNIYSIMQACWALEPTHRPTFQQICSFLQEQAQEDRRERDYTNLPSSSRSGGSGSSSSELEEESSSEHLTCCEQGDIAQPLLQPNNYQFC
# Chain of UniProt Q92772 (whole entry, looked up): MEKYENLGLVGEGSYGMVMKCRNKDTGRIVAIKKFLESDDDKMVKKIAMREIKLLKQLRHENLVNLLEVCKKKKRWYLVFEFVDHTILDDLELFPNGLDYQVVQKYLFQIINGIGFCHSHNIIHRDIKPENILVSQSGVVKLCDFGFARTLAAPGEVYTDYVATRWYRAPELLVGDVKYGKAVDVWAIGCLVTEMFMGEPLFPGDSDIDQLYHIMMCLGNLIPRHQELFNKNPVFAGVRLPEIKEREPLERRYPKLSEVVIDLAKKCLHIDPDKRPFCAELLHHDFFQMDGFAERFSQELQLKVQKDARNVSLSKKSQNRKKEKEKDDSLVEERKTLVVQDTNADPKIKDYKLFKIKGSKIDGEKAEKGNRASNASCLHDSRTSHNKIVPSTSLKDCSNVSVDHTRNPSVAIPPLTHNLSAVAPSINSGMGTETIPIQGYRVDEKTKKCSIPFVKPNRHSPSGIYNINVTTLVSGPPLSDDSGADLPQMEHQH
# Chain of UniProt Q9UIK4 (whole entry, looked up): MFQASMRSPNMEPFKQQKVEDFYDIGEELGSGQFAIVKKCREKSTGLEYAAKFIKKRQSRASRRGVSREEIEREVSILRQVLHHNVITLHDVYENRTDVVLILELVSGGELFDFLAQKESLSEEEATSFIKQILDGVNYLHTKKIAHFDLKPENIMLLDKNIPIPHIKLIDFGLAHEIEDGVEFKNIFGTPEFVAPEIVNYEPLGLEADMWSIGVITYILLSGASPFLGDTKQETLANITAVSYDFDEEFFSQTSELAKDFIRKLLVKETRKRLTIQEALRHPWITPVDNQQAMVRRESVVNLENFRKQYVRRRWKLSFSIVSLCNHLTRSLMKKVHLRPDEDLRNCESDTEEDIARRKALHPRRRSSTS
# Chain of UniProt Q15375 (whole entry, looked up): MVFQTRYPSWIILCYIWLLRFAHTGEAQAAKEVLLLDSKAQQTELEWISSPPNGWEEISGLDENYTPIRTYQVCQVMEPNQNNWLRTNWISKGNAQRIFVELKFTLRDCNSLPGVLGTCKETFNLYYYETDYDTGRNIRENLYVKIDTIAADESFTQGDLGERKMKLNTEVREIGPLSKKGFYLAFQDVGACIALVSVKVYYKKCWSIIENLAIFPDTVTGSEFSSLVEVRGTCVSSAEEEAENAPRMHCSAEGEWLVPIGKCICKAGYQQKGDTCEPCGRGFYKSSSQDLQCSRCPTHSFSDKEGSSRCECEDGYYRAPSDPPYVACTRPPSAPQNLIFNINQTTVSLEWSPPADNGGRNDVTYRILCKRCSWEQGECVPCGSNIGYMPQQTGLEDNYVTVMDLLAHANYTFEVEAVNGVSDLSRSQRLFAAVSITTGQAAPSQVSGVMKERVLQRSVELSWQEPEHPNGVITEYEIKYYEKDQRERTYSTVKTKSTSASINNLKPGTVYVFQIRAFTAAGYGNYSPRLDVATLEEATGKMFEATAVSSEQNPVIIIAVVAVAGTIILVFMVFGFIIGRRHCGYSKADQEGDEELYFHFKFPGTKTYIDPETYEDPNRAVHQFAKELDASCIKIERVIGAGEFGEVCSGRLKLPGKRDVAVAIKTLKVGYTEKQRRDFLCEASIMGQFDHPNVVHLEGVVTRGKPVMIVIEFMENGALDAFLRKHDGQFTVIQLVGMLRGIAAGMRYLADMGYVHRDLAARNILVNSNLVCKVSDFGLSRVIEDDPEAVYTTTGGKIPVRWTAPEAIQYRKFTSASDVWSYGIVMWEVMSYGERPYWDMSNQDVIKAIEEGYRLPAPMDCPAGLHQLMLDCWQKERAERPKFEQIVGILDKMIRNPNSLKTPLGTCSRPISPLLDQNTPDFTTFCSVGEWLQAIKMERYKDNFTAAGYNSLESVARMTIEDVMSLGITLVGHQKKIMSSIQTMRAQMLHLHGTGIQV

# Set 1
# Target: Epidermal growth factor receptor (EGFR, Homo sapiens, UniProt P00533)
# Read-out: enzyme activity
# Mode: inhibitor
# Tested at: 0.5 µM
# Relative to: control
Structure (SMILES),remaining activity [%]
O=C(NC(NC(=S)Nc1ccc(F)c([N+](=O)[O-])c1)C(Cl)(Cl)Cl)C(c1ccccc1)c1ccccc1 (centres unmarked),108
O=C(Nc1cccc(Nc2nccc(Nc3cccc(C(F)(F)F)c3)n2)c1)C1CC1,87.6
COc1cc2ncnc(Nc3ccc(O)c(Br)c3)c2cc1OC,2.22
Cc1cn(-c2cc(NC(=O)c3ccc(C)c(Nc4nccc(-c5cccnc5)n4)c3)cc(C(F)(F)F)c2)cn1,86.9
CN([C@@H](Cc1ccc(OS(=O)(=O)c2cccc3cnccc23)cc1)C(=O)N1CCN(c2ccccc2)CC1)S(=O)(=O)c1cccc2cnccc12,89.4
CN(C)C[C@H]1CCn2c(c(C3=C(c4cn(C)c5ccccc45)C(=O)NC3=O)c3ccccc32)C1,95.8
CCN(CC)C(=O)c1ccc(Nc2nc(OCC3CCCCC3)c3[nH]cnc3n2)cc1,88.5
Cn1nc2c3c(cccc31)C(=O)c1ccccc1-2,105
O=c1cc(-c2cccc3c2Sc2ccccc2S3)oc(N2CCOCC2)c1,107
Cc1nc2cc3nc(-c4cccs4)cnc3cc2n1C,104
Cc1cc2ncc(-c3ccccc3)nc2cc1C,84.5
Nc1cccc(-c2cc3c(Oc4cccc(O)c4)ncnc3[nH]2)c1,7.89
c1ccc(-c2[nH]ncc2-c2ccnc3ccccc23)nc1,81.8
Ic1cccc(CSc2nnc(-c3ccncc3)o2)c1,97.1
O=C1C(Cl)=C(N2C(=O)CCC2=O)C(=O)c2ccccc21,98.4

# Set 2
# Cell line: 1205 Lu melanoma cells
Structure (SMILES),IC50 [µM]
Clc1ccccc1CNCC1CCC(CNCc2ccccc2Cl)CC1 (centres unmarked),11.4
CC(C)c1ccc2c(c1)CC[C@H]1[C@](C)(CN)CCC[C@]21C,2.5
OCCOCCN1CCN(C(c2ccccc2)c2ccc(Cl)cc2)CC1 (centres unmarked),62.7

# Set 3
# SMILES: O=C(NCCCC1CCCCC1)c1ccc(CNC(=O)c2cnn(-c3ccccc3)c2C(F)(F)F)cc1
# Read-out: cell-free assay
# Method: competition with immobilised ligand
# Tested at: 0.1 µM
target,remaining binding [%]
"EGFR (Homo sapiens, UniProt P00533, A750P/del747-749)",100
"EGFR (Homo sapiens, UniProt P00533, G719C)",96
"FLT3 (Homo sapiens, UniProt P36888)",87
"KIT (Homo sapiens, UniProt P10721, A829P)",100
"CSF1R (Homo sapiens, UniProt P07333)",100
"NEK6 (Homo sapiens, UniProt Q9HC98)",83
"EPHA7 (Homo sapiens, UniProt Q15375)",86
"Cyclin-dependent kinase 4, with cyclin D3 (CDK4, Homo sapiens, UniProt P11802)",100
"RIOK1 (Homo sapiens, UniProt Q9BRS2)",100
"DAPK2 (Homo sapiens, UniProt Q9UIK4)",98
"PDGFRA (Homo sapiens, UniProt P16234)",92
"MAP3K2 (Homo sapiens, UniProt Q9Y2U5)",100
"MAP3K4 (Homo sapiens, UniProt Q9Y6R4)",100
"TLK2 (Homo sapiens, UniProt Q86UE8)",100
"PLK4 (Homo sapiens, UniProt O00444)",96
"EGFR (Homo sapiens, UniProt P00533, T790M)",97

# Set 4
# Structure (SMILES): CC#CC(=O)N1CCC[C@H]1c1nc(-c2ccc(C(=O)Nc3ccccn3)cc2)c2c(N)nccn12
# Mode: inhibitor
# Tested at: 1 µM
target,test,inhibition
"Ribosomal protein S6 kinase alpha-1, kinase domain 2 (RPS6KA1, Homo sapiens, UniProt Q15418)",,0%
"EGFR (Homo sapiens, UniProt P00533, L861Q)",enzyme activity,31%
"CDKL2 (Homo sapiens, UniProt Q92772)",enzyme activity,14%
"ITK (Homo sapiens, UniProt Q08881)",enzyme activity,0%
"PTK6 (Homo sapiens, UniProt Q13882)",enzyme activity,11%
"GRK4 (Homo sapiens, UniProt P32298)",enzyme activity,17%
"MAP3K20 (Homo sapiens, UniProt Q9NYL2)",enzyme activity,24%
"PIK3CA (Homo sapiens, UniProt P42336, E542K)",enzyme activity,35%
"PIK3CA (Homo sapiens, UniProt P42336, H1047Y)",enzyme activity,27%
"SGK1 (Homo sapiens, UniProt O00141)",enzyme activity,3%

# Excerpt of the above (set 1):
Structure (SMILES),remaining activity [%]
Cn1nc2c3c(cccc31)C(=O)c1ccccc1-2,105
O=C1C(Cl)=C(N2C(=O)CCC2=O)C(=O)c2ccccc21,98.4
Cc1nc2cc3nc(-c4cccs4)cnc3cc2n1C,104
CN(C)C[C@H]1CCn2c(c(C3=C(c4cn(C)c5ccccc45)C(=O)NC3=O)c3ccccc32)C1,95.8
